Assay results from different studies.
Each line is one published result; not all experiments were run side by side. Values joined by “and” are separate records of one study, mostly repeats; a detail may differ. Numbers after ± are the reported error. Values after ≈ are worked out from the molar mass of the structure shown.
UniProt P16234, sequence (whole entry, unmodified, looked up): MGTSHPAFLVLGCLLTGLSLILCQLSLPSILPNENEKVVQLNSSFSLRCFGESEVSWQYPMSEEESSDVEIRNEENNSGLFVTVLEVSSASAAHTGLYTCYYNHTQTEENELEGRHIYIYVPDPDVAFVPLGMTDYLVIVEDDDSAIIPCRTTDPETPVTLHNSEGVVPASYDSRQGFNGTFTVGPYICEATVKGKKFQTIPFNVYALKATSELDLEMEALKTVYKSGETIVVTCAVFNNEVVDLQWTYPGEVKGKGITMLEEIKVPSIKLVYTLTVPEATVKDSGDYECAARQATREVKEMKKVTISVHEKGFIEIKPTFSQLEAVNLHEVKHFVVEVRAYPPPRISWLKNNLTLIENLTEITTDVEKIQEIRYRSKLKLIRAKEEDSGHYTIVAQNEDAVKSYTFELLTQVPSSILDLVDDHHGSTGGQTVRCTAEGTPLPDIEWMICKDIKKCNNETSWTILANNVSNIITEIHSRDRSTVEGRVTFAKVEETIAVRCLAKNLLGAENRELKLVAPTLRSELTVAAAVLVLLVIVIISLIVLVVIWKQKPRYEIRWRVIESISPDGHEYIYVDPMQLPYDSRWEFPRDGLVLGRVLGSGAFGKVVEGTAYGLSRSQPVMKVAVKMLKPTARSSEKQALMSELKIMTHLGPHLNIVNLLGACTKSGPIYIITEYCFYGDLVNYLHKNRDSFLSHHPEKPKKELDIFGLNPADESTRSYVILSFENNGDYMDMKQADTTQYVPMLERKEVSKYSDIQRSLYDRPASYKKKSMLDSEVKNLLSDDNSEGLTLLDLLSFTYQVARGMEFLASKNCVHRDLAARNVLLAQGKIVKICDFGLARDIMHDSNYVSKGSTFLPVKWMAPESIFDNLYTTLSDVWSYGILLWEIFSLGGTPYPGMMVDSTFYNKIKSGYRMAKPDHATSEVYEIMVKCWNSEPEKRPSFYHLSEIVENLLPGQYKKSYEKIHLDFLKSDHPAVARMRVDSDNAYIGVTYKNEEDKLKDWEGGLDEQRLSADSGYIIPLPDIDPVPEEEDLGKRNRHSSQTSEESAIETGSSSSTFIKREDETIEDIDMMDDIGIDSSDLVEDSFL
UniProt Q00526, sequence (whole entry, looked up): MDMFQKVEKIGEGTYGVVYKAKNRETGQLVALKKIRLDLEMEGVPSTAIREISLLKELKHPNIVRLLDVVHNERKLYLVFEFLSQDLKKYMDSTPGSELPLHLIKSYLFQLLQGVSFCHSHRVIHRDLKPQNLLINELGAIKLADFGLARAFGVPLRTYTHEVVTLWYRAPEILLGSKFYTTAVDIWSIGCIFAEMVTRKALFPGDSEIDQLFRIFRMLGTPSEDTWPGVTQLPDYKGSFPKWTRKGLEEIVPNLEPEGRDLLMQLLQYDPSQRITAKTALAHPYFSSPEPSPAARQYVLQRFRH
UniProt P27361, sequence (whole entry, looked up): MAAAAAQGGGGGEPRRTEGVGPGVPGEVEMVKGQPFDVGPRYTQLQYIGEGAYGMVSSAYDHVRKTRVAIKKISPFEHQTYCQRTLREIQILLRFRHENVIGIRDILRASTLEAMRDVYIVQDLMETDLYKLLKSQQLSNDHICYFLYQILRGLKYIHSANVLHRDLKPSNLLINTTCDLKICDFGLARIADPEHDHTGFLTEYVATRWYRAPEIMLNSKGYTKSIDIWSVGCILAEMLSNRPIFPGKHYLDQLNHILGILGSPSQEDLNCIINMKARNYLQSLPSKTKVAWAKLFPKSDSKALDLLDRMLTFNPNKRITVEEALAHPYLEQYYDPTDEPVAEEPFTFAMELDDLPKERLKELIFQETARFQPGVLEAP

| Compound | target or system | assay | system | setting | scale | endpoint | result |
| --- | --- | --- | --- | --- | --- | --- | --- |
| Cc1cc(C(=O)Nc2nc3cccc(C)c3n2[C@H]2CCCCN(C(=O)/C=C/CN(C)C)C2)ccn1 | Trypanosoma brucei | cell growth, Alamar Blue | 2T1 overexpressing Tb927.10.10870 |  | relative to: parental 2T1 | EC50 fold shift | 1.19 fold and 0.53 fold |
| CN(CCO)CCO.O=C(O)C(Cl)Cl | Eclipta prostrata |  |  | 15 mg/mL, 21 days, pre-emergence, greenhouse |  | herbicidal inhibition | 0% |
| O=C1NC(=O)c2c1c1cc(F)c[n+]3c1c1c2c2cc(O)ccc2[n]1[Ru-4]312([N]=C=S)[S+]3CC[S+]1CC[S+]2CC3 (stereo not drawn) | Cyclin-dependent kinase 3, with cyclin E (CDK3, Homo sapiens, UniProt Q00526) | enzyme activity |  | 100 nM, human enzyme, together with: 10 µM ATP | relative to: untreated | remaining activity | 116% |
| CN[C@@H]1[C@H](O)[C@H](NC)[C@H]2O[C@]3(O)[C@H](O[C@@H]2[C@H]1O)O[C@H](C)C[C@H]3NC(=O)Cc1ccc(Cl)cn1 | Proteus vulgaris | microbial growth, broth dilution | ATCC33420 |  |  | MIC | > 200 µg/mL |
| Cc1ccc(CNC(=O)Cc2c(C)nc3ccc(C)cn23)cc1 | Mycobacterium avium | microbial growth |  | 6 days |  | MIC | > 50 µM |
| O=C1NC2(CC2)COc2ncc(F)cc2[C@H]2COCCN2c2ccn3ncc1c3n2 |  |  | Sprague-Dawley rat, female, heart | oral, 2.5 mg/kg/day, 4 weeks, end of treatment |  | organ-to-brain weight ratio | 66 ± 11.2% |
| Cc1ccc2nc(C)c(CC(=O)NCc3ccc(N(C)C)cc3)n2c1 | Mycobacteroides abscessus |  | ATCC 19977 | 72 h |  | MIC | > 50 µM |
| COc1ccccc1-c1n[nH]c2nc(NC3CCN(C(=O)Cc4ccc(F)cc4F)CC3)ncc12 |  | bead binding, competition bead pull-down, refers to: LINJ.28.2700 | Leishmania donovani extract | 10 µM | relative to: vehicle | relative abundance | 1.1 |
| CS(C)(=O)=Nc1ccc(-c2ccc(-c3nc4cc(O[C@@H]5CO[C@H]6[C@@H]5OC[C@H]6O)[nH]c4cc3F)cc2)cc1 | Platelet-derived growth factor receptor alpha (PDGFRA, Homo sapiens, UniProt P16234, D842V) | enzyme activity, inhibitor |  | 10 µM |  | inhibition | 29% |
| CC(C)CC(C(=O)N1CC2(CC1C#N)C(=O)Nc1ccccc12)N(C)C(=O)c1cc2c(F)cc(F)c(F)c2[nH]1 (stereo not drawn) | Human coronavirus 229E | cytopathic effect | MRC5 | 0.4975 µM |  | inhibition | 101% |
| Cc1ccc(-c2nc3ccc(C)cn3c2CC(=O)NCc2ccc(N(C)C)cc2)cc1 | Mycobacterium avium | microbial growth |  | 6 days |  | MIC | > 50 µM |
| O=C(NNc1ccccc1)c1nnc(C23CC4CC(CC(C4)C2)C3)o1 | Pyricularia grisea | microbial growth |  |  |  | EC50 | > 50 µg/mL |
| COc1ccccc1-c1n[nH]c2nc(N[C@H]3CC[C@H](NS(=O)(=O)CC(C)C)CC3)ncc12 |  | bead binding, competition bead pull-down, refers to: LINJ.32.2780 | Leishmania donovani extract | 10 µM | relative to: vehicle | relative abundance | 0.96 |
| CN(C)[C@H]1C[C@@]23CC[C@@]4(O2)C(=CC[C@]2(C)[C@@H](c5ccc6ccncc6c5)CC[C@H]24)C=C3[C@@H](O)[C@@H]1O | Mitogen-activated protein kinase 3 (MAPK3, Homo sapiens, UniProt P27361) | ATP probe labelling, inhibitor, KiNativ profiling |  | 0.1 µM |  | inhibition | -0.5% |
| Cc1ccc2nc(C)c(C(=O)C(=O)N(C)C)n2c1 | Mycobacteroides abscessus |  | ATCC 19977 | 72 h |  | MIC | > 128 µM |
| O=C(NNc1ccc(Cl)cc1)c1nnc(CC23CC4CC(CC(C4)C2)C3)o1 | Pyricularia grisea | microbial growth |  | 50 µg/mL |  | inhibition | 100% |
| CN[C@@H]1[C@H](O)[C@H](NC)[C@H]2O[C@]3(O)[C@H](O[C@@H]2[C@H]1O)O[C@H](C)C[C@H]3NC(=O)Cc1cscn1 | Mycobacterium avium | microbial growth | ATCC25291 |  |  | MIC | 25 to 50 µg/mL |
| CC(C)(C)C(=O)OCOP(=O)(OCOC(=O)C(C)(C)C)C1CCCN(O)C1=O (stereo not drawn) | HOP-92 |  |  |  |  | log GI50 | -6.16 log M |
| CN[C@@H]1[C@H](O)[C@H](NC)[C@H]2O[C@]3(O)[C@H](O[C@@H]2[C@H]1O)O[C@H](C)C[C@H]3NC(=O)Cc1cc(Cl)ccn1 | Mycobacterium avium | microbial growth | ATCC25291 |  |  | MIC | 12.5 to 25 µg/mL |
| CON(C(=O)c1cn(C)nc1C(F)F)C(C)Cc1c(Cl)cc(Cl)cc1Cl (stereo not drawn) | Fusarium graminearum | mycelial growth |  | 12 h |  | EC50 | 0.136 µg/mL (≈ 0.319 µM) |
| CN[C@@H]1[C@H](O)[C@H](NC)[C@H]2O[C@]3(O)[C@H](O[C@@H]2[C@H]1O)O[C@H](C)C[C@H]3NC(=O)CNC(C)(C)C | Streptococcus pyogenes | microbial growth, broth dilution | ATCC700294 |  |  | MIC | 100 µg/mL |
| Cc1cc(Oc2nc(N3CC[C@@H](c4ccncc4)C3)ncc2F)[nH]n1 | Mycobacterium tuberculosis | OD | H37Rv PurF CRISPRi knockdown | 0.003906 µM, together with: anhydrotetracycline low |  | normalised growth | 68% and 65% and 73% |
| Cc1ccc2nc(C)c(C(=O)NCc3ccccc3)n2c1 | Mycobacteroides abscessus |  | ATCC 19977 | 72 h |  | MIC | > 128 µM |
| CN[C@@H]1[C@H](O)[C@H](NC)[C@H]2O[C@]3(O)[C@H](O[C@@H]2[C@H]1O)O[C@H](C)C[C@H]3NC(=O)Cc1ccccn1 | Mycobacteroides abscessus | microbial growth | ATCC19977 |  |  | MIC | 50 µg/mL |
| C#CCN1C(=O)C(CC#C)(C(=O)OCC)Oc2ccccc21 (stereo not drawn) | Fusarium graminearum | microbial growth |  | 50 µg/mL |  | inhibition | < 25% |
| CN[C@@H]1[C@H](O)[C@H](NC)[C@H]2O[C@]3(O)[C@H](O[C@@H]2[C@H]1O)O[C@H](C)C[C@H]3NC(=O)Cc1ccc(F)cn1 | Mycobacteroides abscessus | microbial growth | ATCC19977 |  |  | MIC | 50 µg/mL |
| Cc1ccc2nc(C)c(C(=O)C(=O)NCc3ccccc3)n2c1 | Mycobacteroides abscessus |  | ATCC 19977 | 72 h |  | MIC | > 128 µM |
